# Assay results from different studies.
# “And” joins repeats or separate records; there may be more than shown. ± gives the spread as reported.
Structure (SMILES),test,system,conditions,half-life
CC(=O)OC/C(C)=C/CCP(=O)(OCOC(=O)CC1CCOCC1)Oc1ccc(C(C)C)cc1 (stereo not shown),,50% CD1 mouse plasma,"100 µM, pH 7.5, 37 °C",0.43 min
CSCC[C@H](NC(C)=O)C(=O)N[C@H]1CSSC[C@@H](C(=O)NCC(=O)N[C@@H](CO)C(=O)NCC(=O)N[C@@H](CO)C(=O)N[C@@H](CC(=O)O)C(=O)N[C@@H](Cc2ccc(O)cc2)C(=O)N[C@@H](CCCCN)C(=O)N[C@@H](CC(=O)O)C(=O)N[C@@H](CC(=O)O)C(=O)N[C@@H](CC(=O)O)C(=O)N[C@@H](CC(=O)O)C(=O)N[C@@H](CCCCN)C(N)=O)NC(=O)[C@H](Cc2ccccc2)NC(=O)[C@@H]2CCCN2C(=O)[C@H](Cc2c[nH]c3ccccc23)NC(=O)[C@H](CC(C)C)NC(=O)[C@H](CCSC)NC(=O)[C@H](Cc2c[nH]cn2)NC(=O)[C@H](Cc2ccccc2)NC(=O)[C@H](Cc2c[nH]cn2)NC(=O)[C@H]([C@@H](C)O)NC(=O)[C@H](Cc2ccccc2)NC1=O,,human plasma 80%,"1 µM, pH 7.4, 37 °C",~210 min
Cc1cc(C)nc(Nc2ncc(C(=O)NCCc3c(C)[nH]c4ccccc34)cn2)c1,,simulated gastric fluid,"10 µM, pH 1.2, 37 °C",> 400 min
CCCCc1ccc(NC(=O)C2=CCN(C)[C@@H]([C@H](O[C@@H]3O[C@H](CN)[C@@H](O)[C@H]3O)[C@H]3O[C@@H](n4ccc(=O)[nH]c4=O)[C@H](O)[C@@H]3O)C(=O)N2C)cc1,,"guinea pig, serum","insufflation, dose not given, dry powder combination single dose",63.4 min
CC(C)[N+](C)(CCOC(=O)C1c2ccccc2Oc2ccccc21)C(C)C,,mouse plasma,plasma stability,31.6 ± 1.1 min
C[C@]1(CO)Cc2ncn(-c3ccc(C#N)c(Cl)c3)c2C(=O)O1,,"healthy Japanese adults, plasma","3 mg once daily, after first dose, multiple dose",324 min
CC[C@H](C)[C@H](NC(=O)[C@H](CO)NC(=O)[C@H](CC(=O)O)NC(=O)[C@H](CC(C)C)NC(=O)[C@H](CCCCN)NC(=O)[C@H](CCC(N)=O)NC(=O)[C@H](CC(N)=O)NC(=O)[C@H](CO)NC(=O)[C@H](CCCNC(=N)N)NC(=O)[C@H](CCCNC(=N)N)NC(=O)[C@@H](NC(=O)[C@H](Cc1c[nH]c2ccccc12)NC(=O)[C@H](CCC(=O)O)NC(=O)[C@H](CCCCN)NC(=O)[C@H](CO)NC(=O)[C@H](CCC(=O)O)NC(=O)[C@H](CCC(=O)O)NC(=O)[C@H](CC(C)C)NC(=O)[C@H](CC(=O)O)NC(=O)[C@H](CO)NC(=O)[C@H](CCCCN)NC(=O)[C@@H](NC(=O)[C@H](CCCCN)NC(=O)[C@H](CC(N)=O)NC(=O)[C@H](CC(C)C)NC(=O)[C@@H](NC(=O)[C@@H](NC(=O)[C@H](CO)NC(=O)[C@@H](NC(=O)[C@H](CC(=O)O)NC(=O)[C@@H](NC(=O)[C@@H]1CCCN1C(=O)[C@H](CC(=O)O)NC(=O)[C@H](CC(C)C)NC(=O)[C@H](C)NC(=O)[C@@H](NC(C)=O)C(C)C)[C@@H](C)CC)[C@@H](C)CC)[C@@H](C)CC)C(C)C)[C@@H](C)CC)[C@@H](C)CC)C(N)=O,UPLC,Tris-buffered saline,"pH 7.6, 23 °C, together with: proteinase K 8 µg/mL",0.333 min
C[C@]12CC[C@H]3[C@@H](CCC4=CC(=O)CC[C@@]43C)[C@@H]1CC[C@@H]2O,,mouse liver microsomes,,4.4 min
N#Cc1cccnc1,,PBS with 5% acetonitrile,"250 µM, pH 7.4, no glutathione",58400 min
Cc1ncc2n1-c1ccc(Cl)cc1C(c1ccccc1F)=NC2,,"healthy volunteers, plasma","oral, 5 mg single dose, day 1, given alone",357 min
COc1ccc(C(=O)OCOP(=O)(CC/C=C(\C)COC(C)=O)Oc2ccc(C(C)C)cc2)cc1 (stereo not shown),,50% CD1 mouse plasma,"100 µM, pH 7.5, 37 °C",1.1 min
[Cl][Ru-]([Cl])([Cl])[Cl].[Na+].c1ccc2[nH]ncc2c1.c1ccc2[nH]ncc2c1,"ICP-MS, measured: total ruthenium","advanced solid tumour patients, plasma","iv infusion, 80 mg/m2, cycle 1 cohort mean",7320 min
CCCCCn1nc(C(=O)Nc2cccc3ccccc23)c2ccccc21,,male human liver microsomes,"1 µM, pH 7.4, 37 °C",1.71 min
CC(C)CC(=O)OC[C@H]1O[C@@](C#N)(c2ccc3c(N)ncnn23)[C@H](O)[C@@H]1O,,mouse whole blood,5 µM,0.331 min
C/C(=C\CCP(=O)(OCOC(=O)CC1CCOCC1)Oc1ccc(C(C)C)cc1)CO (stereo not shown),,50% CD1 mouse plasma,"100 µM, pH 7.5, 37 °C",1.2 min
Cn1ncc(-c2nc(N[C@H]3CC[C@H](N)CC3)ncc2Cl)c1CC1CC1,HPLC-MS/MS,"patients, plasma","oral, 11 mg, day 5",1850 min
CC[C@H](C)[C@@H]1NC(=O)[C@H](Cc2ccc(O)cc2)NC(=O)[C@@H](N)CSSC[C@@H](C(=O)N2CCC[C@H]2C(=O)N[C@@H](CC(C)C)C(=O)NCC(N)=O)NC(=O)[C@H](CC(N)=O)NC(=O)[C@H](CCC(N)=O)NC1=O,,phosphate buffer,"0.1 mg/mL, pH 4.5, 40 °C",175000 min
CCN1CC2(CCN(CCc3cc(F)ccc3F)CC2)O[C@H](C)C1=O,,"ferret, plasma","intraperitoneal, 1 mg/kg",216 ± 12 min
CN(C)C/C=C/C(=O)Nc1cc2c(Nc3ccc(F)c(Cl)c3)ncnc2cc1O[C@H]1CCOC1,,,pH 7.4,31.1 min
CC(=O)OC/C(C)=C/CCP(=O)(OCOC(=O)c1ccccc1)Oc1ccc(C(C)C)cc1 (stereo not shown),,50% CD1 mouse plasma,"100 µM, pH 7.5, 37 °C",0.85 min
CC(C)C[C@@H](NC(=O)[C@H](Cc1ccccc1)NC(=O)CNC(=O)[C@@H](C)NC(=O)[C@H](Cc1ccc(O)cc1)NC(=O)[C@H](C)NC(=O)[C@@H]1CCCN1C(=O)c1ccc[n+](C)c1)C(=O)O,HPLC-UV,20% rat brain homogenate,pH 7.4,24 min
O=C/C=C/c1ccccc1,,human liver microsomes,"10 µM, pH 7.4",4.84 ± 0.05 min
C/C=C1/CN2CC[C@@]34c5cc(O)ccc5N(C)[C@]35OC[C@@]4(C(=O)OC)[C@H]1C[C@H]25,,"rat liver microsomes, male","1 µM, pH 7.4, protein 1 mg/mL, together with: NADPH 1 mM",13.5 ± 0.9 min
C[C@H]1N=C(c2ccccc2F)c2cc(Br)ccc2-n2cnc(C(=O)O)c21,,mouse liver S9 fraction,"10 µM, glucuronidation",435 min
CC[C@H](C)[C@H](NC(=O)[C@H](Cc1ccccc1)NC(=O)[C@H](CC(=O)O)NC(=O)[C@H](CCCNC(=N)N)NC(=O)[C@H](Cc1ccccc1)NC(=O)[C@H](Cc1ccccc1)NC(=O)[C@H](CCCCN)NC(=O)[C@H](CO)NC(=O)[C@H](CC(C)C)NC(=O)[C@H](CCCNC(=N)N)NC(=O)[C@H](CCSC)NC(=O)[C@@H](N)CCC(=O)O)C(=O)N[C@@H](CC(C)C)C(=O)N[C@@H](CCC(N)=O)C(=O)N[C@@H](CCCNC(=N)N)C(=O)N[C@@H](CCCCN)C(=O)N[C@@H](CCCCN)C(=O)O,,trypsin/chymotrypsin in ammonium carbonate,"0.066 mM, pH 8.0, 37 °C, together with: trypsin/chymotrypsin 0.05 µg/mL",90 min
CC(=O)OC/C(C)=C/CCP(=O)(OCOC(=O)CC1CCOCC1)Oc1cccc2ccccc12 (stereo not shown),,50% CD1 mouse plasma,"100 µM, pH 7.5, 37 °C",1.2 min
CC(C)C(=O)OC[C@H]1O[C@@H](n2ccc(NO)nc2=O)[C@H](O)[C@@H]1O,,human plasma,"2 µM, 37 °C",187 min
NC(=O)c1cc(N2CC2)c([N+](=O)[O-])cc1[N+](=O)[O-],substrate depletion,phenobarbital/β-naphthoflavone-induced rat liver microsomes,"1 µM, pH 7.4, 37 °C, together with: NADPH",113 min
CCCCCCCCCCCCCCOC(=O)ONc1ccn([C@@H]2O[C@H](CO)[C@@H](O)[C@H]2O)c(=O)n1,,human plasma,"2 µM, 37 °C",~10 min
CCC(CNc1nc(-c2cn3ccnc3cc2C)nc2ccccc12)c1ccccc1 (stereo not shown),,human liver microsomes,,9 min and 9.1 min
CC(C)C[C@@H](NC(=O)[C@H](Cc1ccccc1)NC(=O)CNC(=O)[C@@H](C)NC(=O)[C@@H](N)Cc1ccc(O)cc1)C(=O)O,HPLC-UV,20% rat brain homogenate,pH 7.4,~730 min
O=S(=O)(F)c1cc(C(F)(F)F)cc(C(F)(F)F)c1,"reactivity with N-α-acetyl-lysine, HPLC-MS",BBS buffer with acetonitrile,"1 mM, pH 10.2",< 1 min
N#Cc1cnccn1,,PBS with 5% acetonitrile,"250 µM, pH 7.4, no glutathione",72500 min
CC(C)C[C@@H](NC(=O)[C@H](Cc1ccccc1)NC(=O)CNC(=O)[C@@H](C)NC(=O)[C@H](Cc1ccc(O)cc1)NC(=O)[C@@H]1CCCN1C(=O)[C@@H]1CCCN1C(=O)c1ccc[n+](C)c1)C(=O)O,HPLC-UV,rat cerebellum homogenate,"100 µM, 37 °C",9 min
